Assay results pooled from the literature.
A part holds a random share of what one study measured.
UniProt Q96L34, sequence (whole entry, looked up): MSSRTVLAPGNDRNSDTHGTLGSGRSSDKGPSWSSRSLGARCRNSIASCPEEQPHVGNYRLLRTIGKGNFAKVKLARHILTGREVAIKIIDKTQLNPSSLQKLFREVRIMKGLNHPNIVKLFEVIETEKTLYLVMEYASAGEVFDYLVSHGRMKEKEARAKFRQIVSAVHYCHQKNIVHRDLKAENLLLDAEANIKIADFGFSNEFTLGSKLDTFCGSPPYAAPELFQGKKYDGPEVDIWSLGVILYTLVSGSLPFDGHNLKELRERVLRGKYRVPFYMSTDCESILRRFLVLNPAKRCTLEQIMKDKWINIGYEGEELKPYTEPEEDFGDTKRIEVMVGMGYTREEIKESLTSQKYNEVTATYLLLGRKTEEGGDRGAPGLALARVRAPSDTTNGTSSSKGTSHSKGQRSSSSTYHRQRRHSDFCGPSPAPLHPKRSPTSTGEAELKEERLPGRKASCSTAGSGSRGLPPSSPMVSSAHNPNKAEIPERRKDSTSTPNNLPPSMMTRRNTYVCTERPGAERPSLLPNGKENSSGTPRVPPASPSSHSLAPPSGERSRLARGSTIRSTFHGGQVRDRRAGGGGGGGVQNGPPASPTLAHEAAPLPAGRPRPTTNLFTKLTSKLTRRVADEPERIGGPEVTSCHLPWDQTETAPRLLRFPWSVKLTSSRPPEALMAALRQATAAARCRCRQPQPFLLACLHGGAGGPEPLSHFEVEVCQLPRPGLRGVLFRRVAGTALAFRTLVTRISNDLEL
UniProt O75417, sequence (whole entry, unmodified, looked up): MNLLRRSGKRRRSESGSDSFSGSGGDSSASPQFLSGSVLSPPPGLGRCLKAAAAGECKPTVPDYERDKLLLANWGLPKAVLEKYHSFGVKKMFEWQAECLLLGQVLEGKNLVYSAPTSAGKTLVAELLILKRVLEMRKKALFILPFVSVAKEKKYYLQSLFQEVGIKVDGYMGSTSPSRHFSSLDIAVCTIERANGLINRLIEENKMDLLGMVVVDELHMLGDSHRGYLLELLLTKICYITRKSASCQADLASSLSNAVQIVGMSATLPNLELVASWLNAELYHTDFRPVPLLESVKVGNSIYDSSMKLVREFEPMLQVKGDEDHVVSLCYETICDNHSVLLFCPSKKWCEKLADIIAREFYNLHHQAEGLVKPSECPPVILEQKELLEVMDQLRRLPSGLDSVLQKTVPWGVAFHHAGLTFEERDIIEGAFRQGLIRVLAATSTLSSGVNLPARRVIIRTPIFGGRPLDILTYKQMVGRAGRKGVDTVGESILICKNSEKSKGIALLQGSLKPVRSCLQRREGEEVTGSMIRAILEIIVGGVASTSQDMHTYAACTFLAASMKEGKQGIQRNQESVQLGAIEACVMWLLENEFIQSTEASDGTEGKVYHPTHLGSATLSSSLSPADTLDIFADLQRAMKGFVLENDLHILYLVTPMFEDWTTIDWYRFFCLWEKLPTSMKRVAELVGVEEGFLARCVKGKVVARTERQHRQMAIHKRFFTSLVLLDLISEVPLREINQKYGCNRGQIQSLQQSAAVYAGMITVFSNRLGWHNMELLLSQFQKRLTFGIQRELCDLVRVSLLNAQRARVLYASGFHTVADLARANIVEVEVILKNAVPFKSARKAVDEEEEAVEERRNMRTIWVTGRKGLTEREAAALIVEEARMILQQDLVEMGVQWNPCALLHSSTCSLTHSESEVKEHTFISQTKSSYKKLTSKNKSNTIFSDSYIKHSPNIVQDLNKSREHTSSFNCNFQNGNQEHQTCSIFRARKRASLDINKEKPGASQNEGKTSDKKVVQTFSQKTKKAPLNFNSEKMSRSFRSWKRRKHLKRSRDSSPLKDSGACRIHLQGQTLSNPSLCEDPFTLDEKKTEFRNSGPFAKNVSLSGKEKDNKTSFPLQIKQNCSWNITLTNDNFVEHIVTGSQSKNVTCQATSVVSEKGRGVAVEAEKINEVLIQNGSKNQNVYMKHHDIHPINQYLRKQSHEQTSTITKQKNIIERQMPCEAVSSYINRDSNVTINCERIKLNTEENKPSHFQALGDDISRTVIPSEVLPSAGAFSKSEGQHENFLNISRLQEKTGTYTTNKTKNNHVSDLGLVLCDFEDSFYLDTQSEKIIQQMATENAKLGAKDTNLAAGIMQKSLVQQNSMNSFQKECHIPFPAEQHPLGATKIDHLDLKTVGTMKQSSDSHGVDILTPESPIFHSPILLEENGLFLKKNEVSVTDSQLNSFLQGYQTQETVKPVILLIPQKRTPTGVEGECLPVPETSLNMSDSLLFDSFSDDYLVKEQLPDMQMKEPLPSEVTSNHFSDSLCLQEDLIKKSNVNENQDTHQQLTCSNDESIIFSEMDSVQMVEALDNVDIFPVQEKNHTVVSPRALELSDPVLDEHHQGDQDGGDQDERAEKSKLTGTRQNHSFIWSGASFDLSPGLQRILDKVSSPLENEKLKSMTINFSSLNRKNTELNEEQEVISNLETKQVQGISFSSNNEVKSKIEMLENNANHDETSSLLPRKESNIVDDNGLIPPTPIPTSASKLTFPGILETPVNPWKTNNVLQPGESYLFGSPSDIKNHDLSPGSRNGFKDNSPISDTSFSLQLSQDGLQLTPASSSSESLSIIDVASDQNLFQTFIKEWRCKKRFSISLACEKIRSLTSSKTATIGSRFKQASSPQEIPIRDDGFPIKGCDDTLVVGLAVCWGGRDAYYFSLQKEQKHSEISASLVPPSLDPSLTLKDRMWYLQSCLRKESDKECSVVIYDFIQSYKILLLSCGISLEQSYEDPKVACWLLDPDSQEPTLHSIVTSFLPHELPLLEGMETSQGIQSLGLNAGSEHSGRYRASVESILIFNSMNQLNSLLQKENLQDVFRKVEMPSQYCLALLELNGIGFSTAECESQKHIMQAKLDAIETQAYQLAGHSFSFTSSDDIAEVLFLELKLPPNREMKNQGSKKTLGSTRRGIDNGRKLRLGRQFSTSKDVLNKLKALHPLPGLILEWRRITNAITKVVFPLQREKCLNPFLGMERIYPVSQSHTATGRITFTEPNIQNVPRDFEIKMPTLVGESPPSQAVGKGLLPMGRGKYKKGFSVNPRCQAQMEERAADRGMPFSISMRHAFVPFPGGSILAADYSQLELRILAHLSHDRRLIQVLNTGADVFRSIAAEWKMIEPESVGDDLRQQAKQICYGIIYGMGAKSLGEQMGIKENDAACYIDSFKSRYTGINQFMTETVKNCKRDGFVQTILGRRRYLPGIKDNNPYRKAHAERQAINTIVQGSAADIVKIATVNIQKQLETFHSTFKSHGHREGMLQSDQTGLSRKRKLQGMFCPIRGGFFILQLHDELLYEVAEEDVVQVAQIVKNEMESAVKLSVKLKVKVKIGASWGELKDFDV
UniProt O75676, sequence (whole entry, looked up): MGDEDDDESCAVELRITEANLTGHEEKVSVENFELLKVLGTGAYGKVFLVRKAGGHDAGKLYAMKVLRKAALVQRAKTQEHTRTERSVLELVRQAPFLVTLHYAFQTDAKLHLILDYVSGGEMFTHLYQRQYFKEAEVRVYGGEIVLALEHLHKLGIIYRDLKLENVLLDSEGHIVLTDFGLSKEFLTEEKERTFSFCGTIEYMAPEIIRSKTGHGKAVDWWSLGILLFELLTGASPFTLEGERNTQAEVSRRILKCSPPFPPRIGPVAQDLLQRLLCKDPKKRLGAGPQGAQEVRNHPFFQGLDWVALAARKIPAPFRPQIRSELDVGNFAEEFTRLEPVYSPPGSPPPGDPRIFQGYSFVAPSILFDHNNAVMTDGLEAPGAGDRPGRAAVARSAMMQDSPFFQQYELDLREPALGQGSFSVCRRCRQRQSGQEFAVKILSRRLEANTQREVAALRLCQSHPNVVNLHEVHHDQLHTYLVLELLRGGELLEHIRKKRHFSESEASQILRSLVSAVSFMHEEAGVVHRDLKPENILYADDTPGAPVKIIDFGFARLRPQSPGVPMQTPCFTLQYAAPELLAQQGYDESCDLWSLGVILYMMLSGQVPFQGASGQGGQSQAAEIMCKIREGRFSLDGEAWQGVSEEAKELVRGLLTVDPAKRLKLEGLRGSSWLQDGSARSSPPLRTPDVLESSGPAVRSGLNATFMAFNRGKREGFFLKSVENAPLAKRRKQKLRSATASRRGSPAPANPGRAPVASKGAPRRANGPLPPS

Study 1
Target: Calcium/calmodulin-dependent protein kinase type II subunit alpha (CAMK2A, Homo sapiens, UniProt Q9UQM7)
UniProt Q9UQM7, sequence (whole entry, looked up): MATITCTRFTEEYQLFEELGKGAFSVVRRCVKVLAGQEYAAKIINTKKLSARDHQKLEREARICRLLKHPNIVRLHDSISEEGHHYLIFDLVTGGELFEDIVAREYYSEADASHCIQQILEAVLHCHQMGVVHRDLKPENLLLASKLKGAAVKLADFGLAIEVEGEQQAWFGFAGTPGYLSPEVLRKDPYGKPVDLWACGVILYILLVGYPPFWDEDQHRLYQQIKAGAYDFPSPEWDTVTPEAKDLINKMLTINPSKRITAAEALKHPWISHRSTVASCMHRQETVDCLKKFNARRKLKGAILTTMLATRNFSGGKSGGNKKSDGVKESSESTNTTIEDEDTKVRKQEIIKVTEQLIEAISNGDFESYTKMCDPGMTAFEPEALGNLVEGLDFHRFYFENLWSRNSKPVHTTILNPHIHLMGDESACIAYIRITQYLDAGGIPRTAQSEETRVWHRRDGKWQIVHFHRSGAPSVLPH
Effect on: enzyme activity
Mode: inhibitor
Concentration: 10 µM
`COC1=CC(=O)O[C@@H](CCc2ccc3c(c2)OCO3)C1` has an inhibition of -26%.
`O=C(CCCN1CCC2(CC1)C(=O)NCN2c1ccccc1)c1ccc(F)cc1` has an inhibition of -1%.
The inhibition of `CNC[C@H](O)c1ccc(O)cc1` is reported as -4%.

Study 2
SMILES: CCn1cnc2c(Nc3cccc(Cl)c3)nc(N[C@H]3CCCC[C@H]3N)nc21
Effect on: enzyme activity
Mode: inhibitor
Concentration: 0.5 µM
Reference: control
For MARK4 (Homo sapiens, UniProt Q96L34): remaining activity read 95.5%.
For PRKG2 (Homo sapiens, UniProt Q13237): remaining activity read 74.3%.
It gave 88.2% for remaining activity (RPS6KA4 (Homo sapiens, UniProt O75676)).

Other studies, line by line
For `Cc1cc(Cl)cc(C(=O)N[C@H](C)CO)c1NC(=O)c1cc(Br)nn1-c1ncccc1Cl`, the remaining compound was 78.7% (human, microsomes or S9; 2 µM, 0.5 h).
With `CCCC[N+]1(C)[C@@H]2C[C@@H](OC(=O)[C@H](CO)c3ccccc3)C[C@H]1[C@@H]1O[C@@H]12` (single isomer, unassigned; (-)) the remaining activity was 100% (DNA polymerase theta, ATPase domain (POLQ, Homo sapiens, UniProt O75417); enzyme activity, inhibitor; 77 µM; reference: untreated).

Repeated from above (other studies, line by line):
For `Cc1cc(Cl)cc(C(=O)N[C@H](C)CO)c1NC(=O)c1cc(Br)nn1-c1ncccc1Cl`, the remaining compound was 78.7% (human, microsomes or S9; 2 µM, 0.5 h).
